Assay results collected from several papers.
Each numbered part is a random draw from the data of one study; scales do not carry over between parts. Changes are numbered by the printed parent chain.

Sample 1
Target: CCNE1, cyclin fold, Cln2 fusion (human)
Technique: yeast growth competition, sequencing
Sample: yeast
Notes: weak parent motif
Relative to: not given
Direction: higher = stronger binding
Measurement: normalised enrichment score
Starting sequence: MICAL3 docking peptide (human); LQLRRQLSFSEDS
LQLRLQLSFSEDS [R5L]: 0.0594
LQLRRDLSFSEDS [Q6D]: -0.119
LQLRRQLSTSEDS [F9T]: -0.0695
LQLRRHLSFSEDS [Q6H]: 0.323
LQLRWQLSFSEDS [R5W]: 0.384
LQLRRQLSFSEFS [D12F]: 1.81
LQLRRQKSFSEDS [L7K]: 0.105
LQLRRQLSFSEKS [D12K]: 0.544
LQLRRQLPFSEDS [S8P]: -0.0977
LQLRRQLSFQEDS [S10Q]: 0.565
LQLRRQDSFSEDS [L7D]: -0.201
LQLRRQLSFSDDS [E11D]: 1.5
LQLRQQLSFSEDS [R5Q]: -0.376
LQLQRQLSFSEDS [R4Q]: -0.17
LQLRRQLAFSEDS [S8A]: 0.135
LQLRRQLSFREDS [S10R]: 0.688
LQLKRQLSFSEDS [R4K]: 0.997
LQLRRQLSFSEMS [D12M]: 1.27
LQLRRQLSFSCDS [E11C]: 1.34
LQGRRQLSFSEDS [L3G]: 1.7
LQLRRQLSFKEDS [S10K]: 0.22
LQLRRQLSRSEDS [F9R]: 0.351
LQVRRQLSFSEDS [L3V]: 5.99
LQLPRQLSFSEDS [R4P]: 0.721
LQLARQLSFSEDS [R4A]: 1.26

Sample 2
Target: RNA binding protein fox-1 homolog 2, RRM domain, GST-SBP tag (RBFOX2, Homo sapiens, UniProt O43251-10, residues 100-194)
Technique: RNA Bind-n-Seq
Molecule type: RNA
Sample: in vitro
Tested at: 365 nM
Notes: natural RNA segment, single round, ends assumed
Relative to: no-protein control
Direction: higher = stronger binding
Measurement: RBNS enrichment (R)
Construct (chain): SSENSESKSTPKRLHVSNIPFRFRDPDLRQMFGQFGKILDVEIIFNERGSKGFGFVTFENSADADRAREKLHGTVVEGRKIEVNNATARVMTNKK
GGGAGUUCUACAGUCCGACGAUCGGGUUUUCCUACGUAGGAUGAAAAGAUUCUUCUGUGUUUAUAAAAUAUAAACAAAGAUUCAUGAUUUAUAAAUGCCAUUUAUUUAUUGAUUCCUUUUUUCAAAAUCCAAAUGGAAUUCUCGGGUGCCAA: 1.21
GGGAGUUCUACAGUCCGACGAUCAAGAUUUAUUUUUUAAUAUGUUGACUUUGUUUCUCAGCAAAGCAUUGGUCAUGUGUGUAUUUUUCCAUAGUCCCACCUUGGAGCAUUUAUGUAGACAUUGUAAAUAAAUUUGGAAUUCUCGGGUGCCAA: 0.754
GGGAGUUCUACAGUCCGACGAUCAUAUAGAAGCUCAAAGUUAAGGGAUUUGCUGAAGACUGUAAAGUUAAUGGAAGAAUUGAGACAAAAAUCCAGUGUAGCUGGCCACUUAUCCAGGGCUUUUUCUACUUCAUUGGAAUUCUCGGGUGCCAA: 0.56
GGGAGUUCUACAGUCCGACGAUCGUUUAUUUGUUGUUAAGUUAAACUGGAGAAAGUUUGUCAUCCUCAUUUUCAAACUGAAAACUAAUCAAAUAUAGUGCCUAUUUAGUCUCAAAAUAAGGUAACUAUUAACUUGGAAUUCUCGGGUGCCAA: 0.619
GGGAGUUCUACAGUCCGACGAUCGAUUAAAGAGGCAGGCGUCACCACACCUGAUAAAUAUUUUCUUCAAGGGAACCAGAGUUUGGUUCUUUAUGCAAAUUUUUUCCCAAUGAAAUAAAACAUAGUUAACUGUGUGGAAUUCUCGGGUGCCAA: 0.333
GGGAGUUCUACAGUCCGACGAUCGAGGGAGAACCCAAUUUUCAAUUAUGUUGGCUUUUUAUAAAGCUUGAGUUAUGUAAGAUUUAAAUAAAAGUUUGCUACCAAGAUGAUUGCCUUAUUGAAUAGGUCACUAUUGGAAUUCUCGGGUGCCAA: 2.44
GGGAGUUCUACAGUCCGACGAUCUGCACCAGGUCUCAAGGUUCUCAUUUCUCAGGUGACGUGAUUCUAAGGCAGGAAUUUGAGAGUUCACAGAAGGAUCGUGUCUGCUGACUGUUUCAUUCACUGUGCACUUUUGGAAUUCUCGGGUGCCAA: 0.569
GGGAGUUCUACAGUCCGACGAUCAGCCUGCAUACCCAGCCUACUCUUGGGCCCACUUGGACGCGCUGGCAGGAGGCCUGGGUCUCACCAGCAGGAGUGCGUGCAAGGUGGGAGGGUCGGUCCAUUACAGACCCUGGAAUUCUCGGGUGCCAA: 1.28
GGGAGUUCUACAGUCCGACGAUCUUCUGGUUUGUCCUGAAGGCAGCAGGCCCCUGGUGUUGAACUUUGGCAGUUGCACCUGACCUUCAUUUCUUCUCAAAUUUGACCAGUUCAAGAGACUCGUAGAUGACUUUUGGAAUUCUCGGGUGCCAA: 0.329
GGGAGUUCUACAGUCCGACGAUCGGCUUAAGAGUCACAUCUUAGCACUUCCGCUCUCAGGCCUCCUCCUCCAUCACAGAUGUCUGGAUGCUUUUGGAAAUGGCCUUGGCUAAAGUAAAAGGGAAAAGUAGAUCUGGAAUUCUCGGGUGCCAA: 0.278
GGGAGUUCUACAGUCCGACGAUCUCUGAAUCCGAGUGCUCCAGUGCAGUGUAAUGAGCUCCAACUUGGUGUGUACUGCCUGCUGGACUGAAGAGACAUGCCUGUCUUUAUGUGAGAGGCUGGCUUUUGUUUACUGGAAUUCUCGGGUGCCAA: 0.335
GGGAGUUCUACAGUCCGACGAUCCAGGUAUCACAAAGCAUUUGUGAAUUGCUUUAGGUGCAGGGACACCACCCACUCAGGACUCUUCCCCAUCAUCCCUUCCAUUGCCACACCCUAGAUCCAGCCUCAGGAACUGGAAUUCUCGGGUGCCAA: 0.542

Sample 3
Target: Histone acetyltransferase KAT6A, winged helix 2, GST fusion (KAT6A, Homo sapiens, UniProt Q92794, residues 85-181)
Technique: protein binding microarray
Molecule type: double-stranded DNA, one strand shown
Sample: in vitro
Tested at: not given
Notes: 8-mer, flanks averaged, mean of 2 arrays, mostly near background
Relative to: not given
Direction: higher = stronger binding
Measurement: E-score
Residues (chain): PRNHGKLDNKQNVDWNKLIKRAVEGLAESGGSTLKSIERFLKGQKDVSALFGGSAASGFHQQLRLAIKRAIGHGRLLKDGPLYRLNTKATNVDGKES
CTGGGATC: -0.0335
CGATTCTC: 0.0657
CGTCATAA: -0.121
AGCGTTTG: -0.0589
CGCTAGGA: 0.0527
TCGGGTCA: 0.125
ACGTGAGA: -0.16
GTCTCGGA: 0.0356
CCCATCAA: 0.0457
ACCCAGAC: 0.12
CATCCGCG: 0.0702
CCGAGGAC: 0.0574
GAACGCCC: 0.0671
AAATCAGT: -0.0232
GCCTCCAA: 0.0559
GCGATGGA: 0.156
GCAGATTA: -0.0515
CAGTTAAA: -0.0148
CGTCGGTC: 0.187
AACAATTC: -0.0254
ACAGGAGC: 0.0555

Sample 4
Target: Ras GTPase-activating protein-binding protein 1, full length (G3BP1, Homo sapiens, UniProt Q13283)
UniProt Q13283, sequence (whole entry, looked up): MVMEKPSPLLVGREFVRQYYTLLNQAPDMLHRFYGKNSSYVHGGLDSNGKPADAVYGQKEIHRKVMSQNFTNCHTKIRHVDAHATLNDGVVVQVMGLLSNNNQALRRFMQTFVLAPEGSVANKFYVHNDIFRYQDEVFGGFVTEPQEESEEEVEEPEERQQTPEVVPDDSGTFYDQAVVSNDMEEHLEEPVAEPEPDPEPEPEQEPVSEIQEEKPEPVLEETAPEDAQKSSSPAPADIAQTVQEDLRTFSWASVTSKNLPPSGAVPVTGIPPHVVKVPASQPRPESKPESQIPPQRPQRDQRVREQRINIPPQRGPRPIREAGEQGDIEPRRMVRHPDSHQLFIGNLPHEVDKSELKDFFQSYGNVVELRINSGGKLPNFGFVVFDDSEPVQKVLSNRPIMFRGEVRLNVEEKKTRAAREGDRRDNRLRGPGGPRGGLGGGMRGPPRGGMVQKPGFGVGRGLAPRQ
Technique: RNA Bind-n-Seq
Molecule type: RNA
Sample: in vitro
Tested at: 200 nM
Notes: whole 134-nt RNA, ends assumed
With: 150 mM KCl
Relative to: input library
Direction: higher = stronger binding
Measurement: log2 enrichment
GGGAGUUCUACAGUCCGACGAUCUCAAGUCCUGUGCUACACAUCGUAUGUACCGAAUCGGGAAAGGGAGGGAAAGGGAAAGUAUUAUGUUACGCCGUUCGGAUCUGCACUUCCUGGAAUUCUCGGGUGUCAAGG: 1.07
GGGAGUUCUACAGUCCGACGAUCUGGGAGGUGGAUUUUGUUUAUUUUUUUAGCUCAUUUCCAGGGGUGGGAAUUUUUUUUUAAUAUGUGUCAUCAAUAAAGUUGUUUUUGAAAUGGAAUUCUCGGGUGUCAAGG: 0.38
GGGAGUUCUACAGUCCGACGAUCAAGUCCUGUGCUACACAUCGUAUGUACCGAAUCGGGGUGGGGAAAAAGGGGAGGGGAAAGUAUUAUGUUACGCCGUUCGGAUCUGCACUUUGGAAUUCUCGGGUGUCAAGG: 0.651
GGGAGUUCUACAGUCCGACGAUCGUCCUGUGCUACACAUCGUAUGUACCGAAUCGGGGAGGGGAAAAAGGGGAAAAAGGGGAAAGUAUUAUGUUACGCCGUUCGGAUCUGCACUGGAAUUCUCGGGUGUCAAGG: 0.324
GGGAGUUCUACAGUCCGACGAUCGUCCUGUGCUACACAUCGUAUGUACCGAAUCGGGUUUUUGGGUUUUUUUGGGAAAGGGAAAGUAUUAUGUUACGCCGUUCGGAUCUGCACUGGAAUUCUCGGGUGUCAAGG: -0.473
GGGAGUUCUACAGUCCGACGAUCUUUAGUGACUUUGGAUGAAGUAACUGAAGAGGAUGAAGACUCUCUGGCGGAUUUUAACAACCUUAAAGAAGAGCUUAAUUUUGUUACUGUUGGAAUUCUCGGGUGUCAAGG: -1.16
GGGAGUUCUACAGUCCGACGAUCUCAAGUCCUGUGCUACACAUCGUAUGUACCGAAUCGGUUUUUGGAGGAAAAAGGAAAGUAUUAUGUUACGCCGUUCGGAUCUGCACUUCCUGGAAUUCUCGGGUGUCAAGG: -0.751
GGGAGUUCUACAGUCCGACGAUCCACAGACAACACGUACCCACACAGACACAGAGGGAAGGGGUUGGGAUGGGGACAGGGUGCACAGCAGGGCGGGGUAGGACCCCAGCCCCUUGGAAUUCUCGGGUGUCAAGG: 1.9
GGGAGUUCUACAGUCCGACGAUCACCAUGCAGGUGGGCAUCUUUGGGAAGUGGGGCAAGGGGGGGAUAGGGAGGGGGGUAACACUUUGGGAACAGGUGGUCCCAAAACGUUUCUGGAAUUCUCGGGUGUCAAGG: 0.879
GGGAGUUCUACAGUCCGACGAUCCACAGACAACACGCACCCACACAGACACAGAGGGAAGGGGUUGGGAUGGGGACAGGGUGCACAGCAGGGGGGGGUAGGACCCCAGCCCCUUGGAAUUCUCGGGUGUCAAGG: 1.72

A few entries again (sample 1):
LQLRRQLPFSEDS [S8P]: -0.0977
LQLRRQLSFQEDS [S10Q]: 0.565
LQLRRQDSFSEDS [L7D]: -0.201
LQLRRQLSFSDDS [E11D]: 1.5
LQLRQQLSFSEDS [R5Q]: -0.376
LQLQRQLSFSEDS [R4Q]: -0.17
LQLRRQLAFSEDS [S8A]: 0.135
LQLRRQLSFREDS [S10R]: 0.688
LQLKRQLSFSEDS [R4K]: 0.997
